Measured values of several laboratories.
Each line is one published result; not all experiments were run side by side.
Organism: Pseudomonas aeruginosa

SMILES = COc1ccc2ccc3c(c2c1)C=[N+]1C2CCCCC2[N+]2=Cc4cccc(C)c4[O][Au-]21[O]3.F[P-](F)(F)(F)(F)F (stereo not shown); assay = bacterial growth, broth microdilution; system = carbapenem-resistant clinical isolate; setting = 24 h; MIC = > 20 µM
SMILES = S=c1n(CN2CCN(c3ccccn3)CC2)nc(C23CC4CC(CC(C4)C2)C3)n1-c1ccccc1; assay = two-fold dilution; system = IFO 3448; setting = 24 h, 36 °C; MIC = 4 µg/mL
SMILES = COc1ccc2ccc3c(c2c1)C=[N+]1C2CCCCC2[N+]2=Cc4ccccc4[O][Au-]21[O]3.F[P-](F)(F)(F)(F)F (stereo not shown); assay = bacterial growth, broth microdilution; system = carbapenem-resistant clinical isolate; setting = 24 h; MIC = 20 µM
SMILES = CC(C)C[C@H](NC(=O)[C@H](CC(N)=O)NC(=O)[C@H](CCCNC(=N)N)NC(=O)[C@@H](CC(C)C)NC(=O)[C@H](Cc1ccc2ccccc2c1)NC(=O)[C@H](CC(=O)O)NC(=O)[C@H](CCCCN)NC(=O)[C@@H](CC(C)C)NC(=O)[C@H](CCCNC(=N)N)NC(=O)[C@H](CCC(N)=O)NC(=O)[C@@H](NC(=O)[C@@H](CC(C)C)NC(=O)[C@H](CCCNC(=N)N)NC(=O)[C@H](CCCCN)NC(=O)[C@H](Cc1ccc(C(F)(F)F)cc1)NC(=O)CN)C(C)C)C(=O)N[C@H](C(N)=O)C(C)C; assay = broth microdilution; system = PAO1; MIC = 6.2 to 12.5 µM
SMILES = CC(=O)N[C@H](CCCCN)C(=O)N[C@H](CC(C)C)C(=O)N[C@H](CCCCN)C(=O)N[C@H](CO)C(=O)N[C@H](CC(C)C)C(=O)N[C@H](CC(C)C)C(=O)N[C@H](CCCCN)C(=O)N[C@@H](C(=O)N[C@H](CC(C)C)C(=O)N[C@H](CO)C(=O)N[C@H](CCCCN)C(=O)N[C@H](C)C(=O)N[C@H](CCCCN)C(=O)N[C@H](CCCCN)C(=O)N[C@H](CCCCN)C(=O)N[C@H](CC(C)C)C(=O)N[C@H](CC(C)C)C(=O)N[C@H](CCCCN)C(=O)N[C@@H](C(=O)N[C@H](C)C(=O)N[C@H](CC(C)C)C(=O)N[C@H](CCCCN)C(=O)N[C@H](C)C(=O)N[C@H](CC(C)C)C(=O)N[C@H](CO)C(=O)N[C@H](CCCCN)C(N)=O)[C@H](C)O)[C@H](C)O; assay = broth microdilution; system = M2; setting = 24 h, 37 °C; MIC = 0.7 µM
SMILES = COc1ccc2c(c1)[O][Au-]13[O]c4ccc5ccc(OC)cc5c4C=[N+]1C1CCCCC1[N+]3=C2.F[P-](F)(F)(F)(F)F (stereo not shown); assay = bacterial growth, broth microdilution; system = carbapenem-resistant clinical isolate; setting = 24 h; MIC = > 20 µM
SMILES = NC[C@H]1O[C@H](O[C@H]2[C@H](OCCCCCCCCCCCCn3cc(CNc4nc(NCc5cn(CCCCCCCCCCCCO[C@@H]6[C@@H](O)[C@H](N)C[C@H](N)[C@H]6O[C@H]6O[C@H](CN)[C@@H](O)C[C@H]6N)nn5)nc(NCc5cn(CCCCCCCCCCCCO[C@@H]6[C@@H](O)[C@H](N)C[C@H](N)[C@H]6O[C@H]6O[C@H](CN)[C@@H](O)C[C@H]6N)nn5)n4)nn3)[C@@H](O)[C@H](N)C[C@@H]2N)[C@H](N)C[C@@H]1O; assay = microbial growth, broth dilution; system = PAO1; MIC = 64 µg/mL
SMILES = COc1c2c(cc3c1[C@@H]1Oc4c(ccc(O)c4CC=C(C)C)[C@@H]1CO3)OC(C)(C)C=C2; system = ATCC 10145; MIC = 128 µg/mL
SMILES = O=C(NCCNCCO)c1cn(Cc2ccc(F)cc2)c2cc(Cl)c(OCc3ccc(C(F)(F)F)cc3)cc2c1=O; system = ATCC 27853; how to read = ≥80% growth inhibition; MIC = < 0.25 µg/mL
SMILES = COc1c2c(cc3oc(=O)cc(-c4ccc(Cl)cc4)c13)C(=O)c1cc(C)cc(O)c1C2=O; assay = microbial growth; MIC = 64 µg/mL
SMILES = COc1ccc2c(c1)C=[N+]1C3CCCCC3[N+]3=Cc4c(ccc5ccc(OC)cc45)[O][Au-]13[O]2.F[P-](F)(F)(F)(F)F (stereo not shown); assay = bacterial growth, broth microdilution; system = carbapenem-resistant clinical isolate; setting = 24 h; MIC = > 20 µM
SMILES = COc1ccc(-c2ccn(CC[C@](C)(C(=O)NO)S(C)(=O)=O)c(=O)c2)c(F)c1; assay = microbial growth; system = UC12120; MIC = 1 µg/mL
SMILES = COc1c(NC(=O)c2ccc(NC(=O)c3ccc(NC(=O)[C@H](CC#N)NC(=O)c4ccc(NC(=O)/C(C)=C/c5ccc(O)cc5)cc4)cc3)c(OC)c2O)ccc(C(=O)O)c1O; system = DSM 24600 ESBL 1; MIC = 16 µg/mL
SMILES = CC1(C)S[C@@H]2[C@H](NC(=O)[C@H](NC(=O)C3=C(O)C(c4ccccc4F)NC3=O)c3ccccc3)C(=O)N2[C@H]1C(=O)O (stereo partly shown); assay = broth microdilution; system = PAO1, Mueller-Hinton broth; setting = without clavulanic acid; MIC = 25 µg/mL
SMILES = Cc1c(CN(C)C(=O)/C=C/c2cnc3c(c2)CC(N)C(=O)N3)oc2ccccc12 (stereo not shown); system = PAO1; MIC = > 64 µg/mL
SMILES = CC[C@@H](C)[C@@H](NC(=O)[C@@H](C)NC(=O)[C@@H](CCCCN)NC(=O)[C@@H](CC(C)C)NC(=O)[C@@H](CC(C)C)NC(=O)[C@H](NC(=O)[C@@H](CCCCN)NC(=O)[C@@H](CC(C)C)NC(=O)[C@@H](C)NC(=O)[C@@H](CCCCN)NC(=O)[C@@H](CCCCN)NC(=O)[C@@H](CCCCN)NC(=O)[C@@H](C)NC(=O)[C@@H](CCCCN)NC(=O)[C@@H](CO)NC(=O)[C@@H](Cc1ccccc1)NC(=O)[C@H](NC(=O)[C@@H](CCCCN)NC(=O)[C@@H](CC(C)C)NC(=O)[C@@H](Cc1ccccc1)NC(=O)[C@@H](CO)NC(=O)[C@@H](CCCCN)NC(=O)[C@@H](Cc1c[nH]c2ccccc12)NC(=O)[C@@H](CCCCN)NC(C)=O)[C@H](C)O)[C@H](C)O)C(=O)N[C@H](CO)C(=O)N[C@H](CCCCN)C(N)=O; assay = broth microdilution; system = PA14; setting = 24 h, 37 °C; MIC = 0.2 µM
SMILES = N=C(N)NCCC[C@H](NC(=O)[C@H](CCCNC(=N)N)NC(=O)[C@H](CCCNC(=N)N)NC(=O)[C@@H](N)CCCNC(=N)N)C(=O)N[C@@H](Cc1c[nH]c2ccccc12)C(=O)N[C@@H](Cc1c[nH]c2ccccc12)C(=O)N[C@@H](Cc1c[nH]c2ccccc12)C(=O)N[C@@H](Cc1c[nH]c2ccccc12)C(=O)O; assay = broth microdilution; system = PAO1; setting = 37 °C; MIC = 21.7 µg/mL
SMILES = CC(=O)N[C@H](CCCCN)C(=O)N[C@H](CC(C)C)C(=O)N[C@H](CCCCN)C(=O)N[C@H](CO)C(=O)N[C@H](CC(C)C)C(=O)N[C@H](CC(C)C)C(=O)N[C@H](CCCCN)C(=O)N[C@@H](C(=O)N[C@H](CC(C)C)C(=O)N[C@H](CO)C(=O)N[C@H](CCCCN)C(=O)N[C@H](C)C(=O)N[C@H](CCCCN)C(=O)N[C@H](CCCCN)C(=O)N[C@H](CCCCN)C(=O)N[C@H](CCCCN)C(=O)N[C@H](CC(C)C)C(=O)N[C@H](CCCCN)C(=O)N[C@@H](C(=O)N[C@H](CC(C)C)C(=O)N[C@H](CC(C)C)C(=O)N[C@H](CCCCN)C(=O)N[C@H](C)C(=O)N[C@H](CC(C)C)C(=O)N[C@H](CO)C(=O)N[C@H](CCCCN)C(N)=O)[C@H](C)O)[C@H](C)O; assay = broth microdilution; system = PA14; setting = 24 h, 37 °C; MIC = 0.7 µM
SMILES = CC(CCCOC(=O)CCC[N+](C)(C)C)C1CCC2C3C(OC(=O)CCC[N+](C)(C)C)CC4CC(OC(=O)CCC[N+](C)(C)C)CCC4(C)C3CC(OC(=O)CCC[N+](C)(C)C)C12C (stereo not shown); assay = microbial growth, broth dilution; system = ATCC27853; setting = 16 h; MIC = > 250 µg/mL

For quick reference, copied from above:
SMILES = NC[C@H]1O[C@H](O[C@H]2[C@H](OCCCCCCCCCCCCn3cc(CNc4nc(NCc5cn(CCCCCCCCCCCCO[C@@H]6[C@@H](O)[C@H](N)C[C@H](N)[C@H]6O[C@H]6O[C@H](CN)[C@@H](O)C[C@H]6N)nn5)nc(NCc5cn(CCCCCCCCCCCCO[C@@H]6[C@@H](O)[C@H](N)C[C@H](N)[C@H]6O[C@H]6O[C@H](CN)[C@@H](O)C[C@H]6N)nn5)n4)nn3)[C@@H](O)[C@H](N)C[C@@H]2N)[C@H](N)C[C@@H]1O; assay = microbial growth, broth dilution; system = PAO1; MIC = 64 µg/mL
SMILES = COc1ccc(-c2ccn(CC[C@](C)(C(=O)NO)S(C)(=O)=O)c(=O)c2)c(F)c1; assay = microbial growth; system = UC12120; MIC = 1 µg/mL
SMILES = CC[C@@H](C)[C@@H](NC(=O)[C@@H](C)NC(=O)[C@@H](CCCCN)NC(=O)[C@@H](CC(C)C)NC(=O)[C@@H](CC(C)C)NC(=O)[C@H](NC(=O)[C@@H](CCCCN)NC(=O)[C@@H](CC(C)C)NC(=O)[C@@H](C)NC(=O)[C@@H](CCCCN)NC(=O)[C@@H](CCCCN)NC(=O)[C@@H](CCCCN)NC(=O)[C@@H](C)NC(=O)[C@@H](CCCCN)NC(=O)[C@@H](CO)NC(=O)[C@@H](Cc1ccccc1)NC(=O)[C@H](NC(=O)[C@@H](CCCCN)NC(=O)[C@@H](CC(C)C)NC(=O)[C@@H](Cc1ccccc1)NC(=O)[C@@H](CO)NC(=O)[C@@H](CCCCN)NC(=O)[C@@H](Cc1c[nH]c2ccccc12)NC(=O)[C@@H](CCCCN)NC(C)=O)[C@H](C)O)[C@H](C)O)C(=O)N[C@H](CO)C(=O)N[C@H](CCCCN)C(N)=O; assay = broth microdilution; system = PA14; setting = 24 h, 37 °C; MIC = 0.2 µM
